Assay results gathered from unrelated publications.
Protocols differ between the studies behind these lines.
Target: Albumin (ALB, Homo sapiens, UniProt P02768)

SMILES | assay | conditions | how to read | quantity | result
Cc1cnc2c(c1)NC(=O)c1cccnc1N2C1CC1 | isothermal titration calorimetry | 298 K | – | Gibbs free energy of binding | -4.66 kcal/mol
CCCNCC(=O)O | circular dichroism | 0.6 mM | – | random coil content | 32.8%
Cc1c(C)c(C)[c-](C)c1C.[C-]#[O+].[C-]#[O+].[C-]#[O+].[Cl-].[Cl-].[Cl-].[Ir+3].[Re+].c1cnc(-c2ncccn2)nc1 | tryptophan fluorescence quenching | concentration not given | – | number of binding sites | 1.16
O=C([O-])CN1CCN(CC(=O)[O-])CCN(CC(=O)c2ccc(-c3ccc(OCC(=O)O)cc3)cc2)CCN(CC(=O)[O-])CC1.[Gd+3] | – | 25 °C, 60 MHz, with: HSA 0.6 mM | relative to: HEPES buffer | relaxivity increase | ~110%
O=C(/C=C/c1ccc(O)c(O)c1)NCCCCCCCC[P+](c1ccccc1)(c1ccccc1)c1ccccc1 | fluorescence quenching | – | – | binding constant | ~10 1.000e+04 M⁻¹
Cc1ccc(C(C)C)cc1.[C-]#[O+].[C-]#[O+].[C-]#[O+].[Cl-].[Cl-].[Cl-].[Re+].[Ru+2].c1cnc(-c2ncccn2)nc1 | tryptophan fluorescence quenching | concentration not given | – | number of binding sites | 1.12
O=S([O-])c1ccccc1N=Cc1ccccc1[O-].[Cu+2].c1c[nH]cn1 | fluorescence quenching | concentration not given | – | number of binding sites | 0.9
CCCCCC(C)NCC(=O)O (centres unmarked) | circular dichroism | 0.6 mM | – | α-helix content | 52.6%
